Published values pooled from the literature.
Numbered parts are unrelated; each lists some results of a single study. Changes are numbered by the printed parent chain.
UniProt Q7Z7E8, sequence (whole entry, looked up): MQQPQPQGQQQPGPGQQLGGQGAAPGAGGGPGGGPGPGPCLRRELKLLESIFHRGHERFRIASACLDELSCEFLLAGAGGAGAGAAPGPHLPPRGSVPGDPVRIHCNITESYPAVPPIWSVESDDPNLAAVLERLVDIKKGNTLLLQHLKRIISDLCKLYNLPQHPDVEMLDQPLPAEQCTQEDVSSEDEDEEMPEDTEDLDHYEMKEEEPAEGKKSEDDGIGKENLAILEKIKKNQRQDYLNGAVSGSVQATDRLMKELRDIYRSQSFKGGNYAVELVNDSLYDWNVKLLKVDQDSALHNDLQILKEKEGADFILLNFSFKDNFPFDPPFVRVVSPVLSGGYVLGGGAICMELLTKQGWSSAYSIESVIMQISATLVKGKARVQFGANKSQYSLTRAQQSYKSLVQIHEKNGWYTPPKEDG
UniProt O00762, sequence (whole entry, looked up): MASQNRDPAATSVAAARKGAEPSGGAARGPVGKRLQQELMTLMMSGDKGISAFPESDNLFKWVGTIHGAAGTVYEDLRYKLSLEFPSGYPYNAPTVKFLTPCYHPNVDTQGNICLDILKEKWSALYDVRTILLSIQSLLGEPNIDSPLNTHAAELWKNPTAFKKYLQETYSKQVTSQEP
UniProt P63146, sequence (whole entry, looked up): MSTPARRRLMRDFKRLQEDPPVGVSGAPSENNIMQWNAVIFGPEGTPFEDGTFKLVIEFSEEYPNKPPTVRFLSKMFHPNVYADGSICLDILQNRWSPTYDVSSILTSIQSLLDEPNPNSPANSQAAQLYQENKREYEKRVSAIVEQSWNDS
UniProt Q9H832, sequence (whole entry, looked up): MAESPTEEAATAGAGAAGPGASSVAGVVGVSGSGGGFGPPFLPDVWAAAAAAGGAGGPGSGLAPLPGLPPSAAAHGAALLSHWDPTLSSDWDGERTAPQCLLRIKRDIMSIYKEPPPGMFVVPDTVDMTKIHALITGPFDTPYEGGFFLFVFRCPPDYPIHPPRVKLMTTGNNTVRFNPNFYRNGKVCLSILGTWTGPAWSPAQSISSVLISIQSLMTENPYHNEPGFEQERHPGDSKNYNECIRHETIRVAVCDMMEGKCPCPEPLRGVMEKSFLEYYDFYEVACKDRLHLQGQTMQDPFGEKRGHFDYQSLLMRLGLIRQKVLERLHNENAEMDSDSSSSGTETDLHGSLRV
UniProt Q969T4, sequence (whole entry, looked up): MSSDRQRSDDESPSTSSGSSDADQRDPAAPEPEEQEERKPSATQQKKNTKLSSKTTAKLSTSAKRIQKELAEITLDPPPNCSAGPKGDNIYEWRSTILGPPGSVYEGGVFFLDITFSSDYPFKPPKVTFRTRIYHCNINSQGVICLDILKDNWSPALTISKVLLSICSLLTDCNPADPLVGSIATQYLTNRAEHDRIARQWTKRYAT
UniProt Q9NPD8, sequence (whole entry, looked up): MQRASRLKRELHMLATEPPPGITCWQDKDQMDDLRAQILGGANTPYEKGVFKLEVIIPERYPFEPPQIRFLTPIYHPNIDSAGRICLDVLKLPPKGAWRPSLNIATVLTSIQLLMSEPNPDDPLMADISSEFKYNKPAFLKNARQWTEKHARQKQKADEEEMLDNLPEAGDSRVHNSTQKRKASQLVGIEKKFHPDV

Sample 1 — technique: DHFR PCA, deep sequencing; medium: yeast; with: (+)-ABA 200 µM; relative to: wild-type fitted maximum; direction: higher = stronger binding
Target: ABI1, truncated, D143A, DHFR fusion (Arabidopsis thaliana)
Setting: methotrexate growth selection, single substitutions
Parent: PYL1, truncated, DHFR fusion (Arabidopsis thaliana); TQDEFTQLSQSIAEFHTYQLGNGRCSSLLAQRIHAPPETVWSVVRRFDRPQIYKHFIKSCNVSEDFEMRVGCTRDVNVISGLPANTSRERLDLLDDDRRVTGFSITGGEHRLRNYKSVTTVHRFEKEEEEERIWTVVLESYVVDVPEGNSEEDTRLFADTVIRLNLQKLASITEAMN
| Change | relative binding score [%] |
| --- | --- |
| H16M | -11 |
| V43Y | 92.4 |
| T154M | 83.4 |
| G21C | 98.9 |
| A13F | 93.9 |
| G148E | 81.3 |
| K168R | 96.3 |
| A175P | 90.1 |
| P50H | 10.9 |
| T86S | 102 |
| N165K | 40.7 |
| P37E | 86.8 |
| E4V | 98.2 |
| V70E | 90 |
| Q10G | 101 |
| R74C | -3.58 |
| W134R | 86.9 |
| E130C | 106 |

Sample 2 — Sequence: B1 (ZNRF3 RING domain); technique: yeast two-hybrid; medium: yeast; setting: mostly zero background; relative to: not given; direction: higher = stronger interaction
B1: ZNRF3 RING domain (UniProt Q9ULT6); chain DTLSSSSTSDCAICLEKYIDGEELRVIPCTHRFHRKCVDPWLLQHHTCPHCRHNIIEQKGNP
| target | lacZ reporter activity |
| --- | --- |
| UBE2Z UBC core domain (UniProt Q9H832) | 0 |
| UBE2Q1 UBC core domain (UniProt Q7Z7E8) | 0 |
| UBE2B UBC core domain (UniProt P63146) | 0 |
| UBE2C UBC core domain (UniProt O00762) | 0 |
| UBE2E3 UBC core domain (UniProt Q969T4) | 0 |
| UBE2T UBC core domain (UniProt Q9NPD8) | 0 |

Sample 3 — technique: RNA Bind-n-Seq; molecule type: RNA; medium: in vitro; concentration: 100 nM; relative to: input RNA pool; direction: higher = stronger binding
Target: RING finger protein unkempt homolog, zinc fingers 1-6, SBP tag (UNK, Homo sapiens, UniProt Q9C0B0, residues 30-357)
UniProt Q9C0B0, sequence (30-357, looked up): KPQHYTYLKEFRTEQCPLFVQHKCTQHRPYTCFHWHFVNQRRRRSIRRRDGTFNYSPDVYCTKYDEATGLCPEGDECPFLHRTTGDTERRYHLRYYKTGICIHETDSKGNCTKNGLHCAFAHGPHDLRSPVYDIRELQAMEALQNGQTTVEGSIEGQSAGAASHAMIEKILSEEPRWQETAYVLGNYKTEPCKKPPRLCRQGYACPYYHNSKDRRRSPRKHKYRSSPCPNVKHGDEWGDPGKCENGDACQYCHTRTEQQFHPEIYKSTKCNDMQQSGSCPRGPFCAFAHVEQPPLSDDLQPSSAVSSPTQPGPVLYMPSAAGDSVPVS
Setting: RNA with constant flanks, vertebrate orthologous sites, ends assumed
All sequences stand within: GGGAGUUCUACAGUCCGACGAUC … CAACAGAGGAUUGAGCAUCA
| Strand | bound/input enrichment [ratio] |
| --- | --- |
| AGGGAGGGCCCCCAAGUCCACCUCUCUUUGUUCUGUAAACCACAGCCUGUAAAUAAUGUUUAGCAUUCCUAUUGUAACAAAAUUAAUUUUUAUGAAAUAAAUUAUAUUUCCUAGUCUAAU | 0.645 |
| UACUUCUGGUGAUAUCUGGCCUGGCCUUUCAGCUUAUGAUAAUAGUCCCAGAUCACCCCAUAGUCCUUCACCGAUUGCUACUCCACCUAGUCAGAGUUCAUCUUGUUCUGAUGCUCCCAU | 0.946 |
| AGCCUCCCCGUUACCCAUGAAAUAGAACUUUUUAAAAUUGUGUUGCCACCACAUGUAAAAAACUUAGCAAUAUUAGAAUAAGAUGCUAAUGAAGUCAGAAAUUUUGCUCAUUGUUUUGAA | 1.94 |
| CGGCUGAUUCGCUCAUCGGGAGAGCUGCACACAUAGCUGUUCUUGAUUCAGAAAUAUUUUUAGAGAAGUUUUUUCUGGUUGCUGCCCUCAAAUAUUUUCAGUAGAACAGAAGCAUCAUUA | 0.565 |
| GUGACUUUGGACGUCCGUUCAUCCUCGGUGUAGGGAUUACUUAGUGCCGGGCCUUCCACGUUUGGUUUUUUCUUCUGGACAGGAGGUCUCUGCAGCAACCAUGUUACGCCAGAUCAUCGG | 0.377 |
| GCCCCAGUGUGUGUGUGCAUUACAUUCCUCUCUGUUCUGCUGAAGGGAAAAAAGAGACAUUUUAACCUUUUUAAGGUUAUUGACUUAAUUUUAUGUUAUUUGGUUGCAUGAAGUUGCCCU | 0.533 |
| AUGAUUUUCAAUCUCUUUUCCCUUACCCUGAUUUUAAAAGCCCUUCUUUUUUUUUUUUAGGCAUAUAUAGUAAUAUUAGCAGAAAGAUUUAAUUUGAGCAACUUUGAUUCUUAAAAGAGA | 0.499 |
| CUCCCUGUUACCCCUAAAGGAGAACUUUUUAAAAUUAUGUCACCGCCACUUGUAAAAAUUUAGCAAUAUCAGAAGAAACCGCUAAUGAAGUAAGGAAUUUUGCUUAUUGUUUUGCAAACC | 0.417 |

Sample 4 — target: CCNE1, cyclin fold, Cln2 fusion (human); technique: yeast growth competition, sequencing; medium: yeast; setting: strong parent motif; relative to: not given; direction: higher = stronger binding
Parent: PKMYT1 docking peptide (human); SFEPRNLLSLFED
| Change | normalised enrichment score |
| --- | --- |
| SFEGRNLLSLFED [P4G] | 0.738 |
| SFEPRNLLSLDED [F11D] | 0.298 |
| SFEPRVLLSLFED [N6V] | 1.16 |
| SFRPRNLLSLFED [E3R] | 2.67 |
| SFEPRNLLLLFED [S9L] | 1.74 |
| SFEFRNLLSLFED [P4F] | 0.489 |
| SFEPRNLLSLFEP [D13P] | 1.97 |
| SKEPRNLLSLFED [F2K] | -0.238 |
| SFEPHNLLSLFED [R5H] | -0.155 |
| SFEPRNKLSLFED [L7K] | 0.217 |
| SFEPRNLCSLFED [L8C] | 0.4 |
| SFEPRNLLSLFSD [E12S] | 1.53 |
| SFYPRNLLSLFED [E3Y] | 2.43 |
| SFEPRNLHSLFED [L8H] | 0.734 |
| SFEPRNLNSLFED [L8N] | 1.04 |
